Published values collected from several papers.
Protocols differ between the studies behind these lines. Values joined by “and” are separate records of one study, mostly repeats; a detail may differ.
Chain of UniProt P05177 (whole entry, looked up): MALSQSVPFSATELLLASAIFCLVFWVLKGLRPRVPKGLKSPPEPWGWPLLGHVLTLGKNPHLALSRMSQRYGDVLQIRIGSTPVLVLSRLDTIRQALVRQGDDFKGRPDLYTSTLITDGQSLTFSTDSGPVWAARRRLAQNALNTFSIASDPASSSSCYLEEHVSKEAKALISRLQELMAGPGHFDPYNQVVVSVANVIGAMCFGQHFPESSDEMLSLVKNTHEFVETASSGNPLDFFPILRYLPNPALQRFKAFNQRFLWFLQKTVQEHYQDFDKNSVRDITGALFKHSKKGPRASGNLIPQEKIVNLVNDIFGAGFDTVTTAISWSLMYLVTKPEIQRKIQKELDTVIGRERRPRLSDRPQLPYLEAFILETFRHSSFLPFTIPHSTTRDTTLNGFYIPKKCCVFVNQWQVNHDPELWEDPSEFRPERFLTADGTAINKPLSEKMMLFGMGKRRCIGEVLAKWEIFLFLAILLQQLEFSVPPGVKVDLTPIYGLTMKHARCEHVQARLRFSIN

CCN(CC)CC#CCNc1ccnc2cc(Cl)ccc12  revertants (Salmonella typhimurium; mini-Ames test; TA102; 250.0 µg/well, with rat liver S9): 80 revertants/well and 83 revertants/well
O=C1C2CC3CC1CC(C(=O)N1CCN(c4ccc([N+](=O)[O-])c5ncccc45)CC1)(C3)C2  revertant fold increase (Salmonella typhimurium; Ames test; TA1535; 0.13 µg/well, without S9; reference: vehicle): 0.5
CN1CCCNC(=O)c2cccc(c2)C(=O)NCCCN(C)CCCNc2cccc3c2C(=O)c2cccc(c2C3=O)NCCC1  log2 fold change (SAS; RNA-Seq, item: ATP2A2 mRNA; 1 µM, 6 h; reference: untreated cells): -0.494
C=C(NC(=O)c1csc(-c2nc3c(cc2O)-c2nc(cs2)C(=O)NC(C(C)O)C(=O)NC(=C(C)OC)c2nc(cs2)C(=O)NC2c4nc(cs4)C(=O)NC(COC(=O)c4c5c6c(cccc6n4O)COC(=O)C(OC4CC(C)(O)C(N(C)C)C(C)O4)C2OC5)c2nc-3cs2)n1)C(N)=O (stereo not drawn)  MRT(0-last) (Sprague-Dawley rat, both sexes, plasma; intravenous infusion, 2 mg/kg single dose): 40.8 min
Nc1nc2cc(C(=O)c3ccc(F)cc3)ccc2[nH]1  revertants (Escherichia coli; Ames preincubation test; WP2 uvrA; 156.0 µg/plate, without S9): 35.3 revertants/plate
COc1ccc(/C=C/C(=O)c2ccccc(=O)c2O)cc1  CC50 (HepDES19; cell growth or viability, MTS; 72 h): 35.5 µM
CNS(=O)(=O)Nc1nccc(Cc2c(C)c3ccc(Oc4ncccc4F)cc3oc2=O)c1F  IC50 (KALS-1; cell viability; 7 days): > 1 µM
N#C[C@@H]1CC(F)(F)CN1C(=O)CNC(=O)c1ccnc2c(NC(=O)CCOCCOCCOCCOCCOCCOCCNC(=O)[C@H](CCCCNC(=O)CN3CCN(CC(=O)[O-])CCN(CC(=O)[O-])CCN(CC(=O)[O-])CC3)NC(=O)CCCc3ccc(I)cc3)cccc12.[177Lu+3]  tracer uptake (U-87 MG tumour model; host not given, tumour; 48 h, tumour-bearing): 1.58 %ID/g
O=C1OCc2cc(O)c(=O)c(O)c(O)c21  CC50 (HepDES19; cell growth or viability, MTS; 72 h): 36.3 µM
CC(C)OCCOCc1ccc(OCC(O)CN(N=O)C(C)C)cc1 (stereo not drawn)  revertant fold increase (Salmonella typhimurium; Ames test; TA1535; 50 µg/plate, 30 % rat S9; reference: solvent control): 0.9 fold
Nc1ncc(-c2cc(-c3cnn(CC(F)(F)F)c3)ncc2F)nc1C(=O)NC1CNCC(F)C1 (stereo not drawn)  remaining binding (MYO3B; KINOMEscan; 1 µM; reference: DMSO control): 97%
COc1cccc(OC)c1-c1cc(C(=O)NC2(C(=O)O)C3CC4CC(C3)CC2C4)nn1-c1ccc(C(=O)NCCNC(=O)[C@H](CCCCNC(=O)[C@H](CC(C)C)NC(=O)C2OC2C(=O)O)NC(=O)CN2CCN(CC(=O)[O-])CCN(CC(=O)[O-])CCN(CC(=O)[O-])CC2)cc1C(C)C.[177Lu+3] (mixture of isomers)  tracer uptake (HT-29 tumour model; host not given, blood; 72 h, tumour-bearing): 0.034 %ID/g
COC1CN([C@H]2CC[C@H]([C@@]3(C)Oc4c(Cl)cc(C(=O)NCc5c(SC)cc(C)[nH]c5=O)c(C)c4O3)CC2)C1  log2 fold change (RNA-seq, item: PRDM16 mouse homolog; mouse, HT-1376 xenograft, whole blood; dose not given; reference: vehicle): 4.56
CNC(=O)C1CCCN(C(=O)C2CC3CCC2N3C(=O)[C@@H]2C[C@@H](O)CN2C(=O)NCc2cccc(Cl)c2F)C1 (mixture of isomers)  remaining activity (Cytochrome P450 1A2 (CYP1A2, Homo sapiens, UniProt P05177); preincubation with NADPH; human; 0.0686 µM; reference: negative control): 99.4% and 94.8% and 98.2%
COC(=O)c1c(C)cc(O)c(=O)c(O)c1C(=O)OC  CC50 (HepDES19; cell growth or viability, MTS; 72 h): 38 µM
Cc1ncsc1-c1ccc(C(C)NC(=O)C2CC(O)CN2C(=O)C(NC(=O)CCCCCCCCCCN2CCCC(Nc3ncc(Cl)c(Nc4ccccc4S(=O)(=O)C(C)C)n3)C2)C(C)(C)C)cc1 (stereo not drawn)  log2 fold change (22Rv1; RNA-seq, item: TNS4 mRNA; concentration not given; reference: DMSO): -3.17
COC(=O)c1c(C)cc(OC)c(=O)c(O)c1OC  CC50 (HepDES19; cell growth or viability, MTS; 72 h): > 100 µM
C=CC(=O)Nc1cccc(Cn2ncc3cnc(Nc4cnn(CCOC)c4)nc32)c1  percent of control (CAMKK1 human; binding, KINOMEscan; 100 nM; lower = stronger binding): 95%

Repeated from above:
COC(=O)c1c(C)cc(OC)c(=O)c(O)c1OC  CC50 (HepDES19; cell growth or viability, MTS; 72 h): > 100 µM
C=CC(=O)Nc1cccc(Cn2ncc3cnc(Nc4cnn(CCOC)c4)nc32)c1  percent of control (CAMKK1 human; binding, KINOMEscan; 100 nM; lower = stronger binding): 95%
